# Published values collected from several papers.
# Each line is one published result; not all experiments were run side by side. Values joined by “and” are separate records of one study, mostly repeats; a detail may differ. ± marks the error that the study gave.
Compound,cell line,test,system,conditions,scale,measurement,value
Nc1cccc2c1C(=O)N(C1CCC(=O)NC1=O)C2=O (stereo not shown),MM1.S,XTT,,0.6 µM,,viability,47% and 29% and 40%
Cn1cc(-c2ccc(-c3cncc(Cl)c3N3CCC4(CCNC4=O)CC3)cc2)cn1,COLO 205,"microarray, item: SPIB",,"concentration not given, 2 h, gene set SPI-B",relative to: untreated cells,fold change in expression,-3.32
CCn1cc(-c2cc(Cn3ccnc3)cc3c2CCN([C@H](c2cc(OC)ccn2)C2CC2)C3=O)c(C(F)(F)F)n1,Li-7,"cell growth, inhibitor",,120 h,,EC50,172 nM
C[C@]12CCCN1CC1=NNC(=O)c3cc(F)cc4[nH]c2c1c34,LS174T colorectal cancer cells,cell viability,,"concentration not given, together with: with temozolomide",,EC50,> 3000 nM
Cc1cc(N2CCc3c(c(C)nn3CC34CCC(NC(=O)[C@@H]5COCCN5)(CC3)CC4)C2)c2cnn(C)c2n1,human PBMC,"qRT-PCR, item: OASL mRNA",,"100 nM, together with: ssRNA",,inhibition,91%
O=C(C[C@@H](C(F)F)n1ccc(F)n1)N1CCC(O)(Cn2cnc3c(cnn3-c3ccc(F)cc3)c2=O)CC1,CHP-212 USP7 V517F knock-in clone,SRB,,20 µM,,viability,15.7%
CS(=O)(=O)N1CCN(Cc2cc3nc(-c4cccc5[nH]ncc45)nc(N4CCOCC4)c3s2)CC1,mouse CD4 T-cell blasts,"IL-2 driven proliferation, 3H-thymidine uptake",,,,EC90,1500 nM
COc1cnc2cccc(N3CCc4c(cc(Cn5ccnc5C)cc4-c4cn(C)nc4C(F)(F)F)C3=O)c2c1,HMC18,cell growth,,120 h,,EC50,21900 nM
Cc1nc(NC(=O)N2CCC[C@H]2C(N)=O)sc1-c1ccnc(C(C)(C)C(F)(F)F)c1,MFM-223,"cell growth, CellTiter-Glo",,120 h,,Hill coefficient GR curve,1.58
C=CC[C@@H]1c2ccc(OC)c(OC)c2CN2CCc3cc4c(cc3[C@H]12)OCO4,HEK293 transfected,"ATP-evoked current, whole-cell patch clamp",,"30 µM, mutant Y295A",,normalised current,0.6 and 0.777 and 0.584
CCCCCC(=O)Oc1c(C)c(O)c(C(=O)/C=C/c2ccccc2)c(OC)c1C,KKU-M213,SRB,,,relative to: normal over KKU-M213 IC50,selectivity index,1.11
C[C@H]1[C@@H](O)O[C@@H]2O[C@@]3(C)CC[C@H]4[C@H](C)CC[C@@H]1[C@@]24OO3,KCL-22,"annexin V/PI flow cytometry, item: annexin V+/PI-",,"3.2 µM, 24 h",,early apoptotic cells,9.1%
COc1cc(/C=C/C(=O)N2CCC=CC2=O)cc(OC)c1OC,MDA-MB-468,"quantitative RT-PCR, item: CDKN2A",,"30 µM, 8 h",relative to: untreated cells,mRNA level,79.6 ± 49.9%
CC(=O)c1nn(-c2ccc(Cl)cc2)/c(=N/N=C(\C)c2ccc(NC(=O)c3ccc(C)cc3)cc2)s1,HepG2,,,0.312 µM,,viability,27.1%
CN1C[C@H](COc2nccc3c(NCc4ccco4)cc(Cl)nc23)OC1=O,"iPSC-derived cardiomyocytes, GLA mutant",,,concentration not given,relative to: untreated,Gb3 accumulation decrease,31.8%
CC(C)Cn1cnc2c(N)nc3ccccc3c21,THP-1-derived macrophages,"induction, ELISA",,"10 µg/mL, 24 h",relative to: untreated,IL-8 level,21 fold
COc1cccc2c1C(=O)c1c(O)c3c(c(O)c1C2=O)C[C@@](O)(C(=O)CO)C[C@@H]3O[C@H]1C[C@H](N)[C@H](O)[C@H](C)O1,E0771,"cytotoxicity, WST-1",,"72 h, highest tested concentration",,Emax,95.2%
O=c1ccn([C@@H]2O[C@H](CO)[C@@H](O)[C@H]2O)c(=O)[nH]1,activated human T cells,,human,3.16 µM,,T cell proliferation,101% and 100% and 87.5% and 93.9% and 88%
CN(C)CCCC1(c2ccc(F)cc2)OCc2cc(C#N)ccc21 (stereo not shown),SH-SY5Y,neurite outgrowth,,nominal concentration,relative to: IC10 over EC10,specificity ratio,6.24

# A few entries again:
Compound,cell line,test,system,conditions,scale,measurement,value
CCCCCC(=O)Oc1c(C)c(O)c(C(=O)/C=C/c2ccccc2)c(OC)c1C,KKU-M213,SRB,,,relative to: normal over KKU-M213 IC50,selectivity index,1.11
CCn1cc(-c2cc(Cn3ccnc3)cc3c2CCN([C@H](c2cc(OC)ccn2)C2CC2)C3=O)c(C(F)(F)F)n1,Li-7,"cell growth, inhibitor",,120 h,,EC50,172 nM
